{"data": "Measurements collected from several papers", "note": "Numbered parts are unrelated; each lists some results of a single study. Substitutions count along the parent as printed."}
{"data": "Sample 1", "target": "Histone acetyltransferase KAT6A, winged helix 1, GST fusion (KAT6A, Homo sapiens, UniProt Q92794, residues 1-85)", "method": "protein binding microarray", "form": "double-stranded DNA, one strand shown", "medium": "in vitro", "tested at": "not given", "notes": "8-mer, flanks averaged, mean of 2 arrays, mostly near background", "reference": "not given", "reading": "higher = stronger binding", "Construct (chain)": "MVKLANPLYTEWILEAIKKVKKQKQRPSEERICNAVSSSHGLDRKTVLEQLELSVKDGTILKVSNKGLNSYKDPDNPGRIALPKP"}
{"Oligonucleotide": "GTACCTGA", "E-score": -0.0402}
{"Oligonucleotide": "AACTAGTC", "E-score": -0.134}
{"Oligonucleotide": "CTGCGGAC", "E-score": 0.153}
{"Oligonucleotide": "ATCTCTAA", "E-score": -0.0882}
{"Oligonucleotide": "GATTAGGC", "E-score": -0.164}
{"Oligonucleotide": "TTATTCAA", "E-score": -0.0664}
{"Oligonucleotide": "GTGTCGGA", "E-score": 0.068}
{"Oligonucleotide": "ACGATCGC", "E-score": 0.168}
{"Oligonucleotide": "ACCTCAGA", "E-score": -0.279}
{"Oligonucleotide": "GGATGTCA", "E-score": 0.0826}
{"Oligonucleotide": "GCTTCGAC", "E-score": -0.00055}
{"Oligonucleotide": "AGCAACCC", "E-score": 0.051}
{"Oligonucleotide": "TCAGACGA", "E-score": -0.204}
{"Oligonucleotide": "AGATAGTA", "E-score": -0.0464}
{"Oligonucleotide": "CCCGCGCG", "E-score": 0.478}
{"Oligonucleotide": "CCAGCCTA", "E-score": -0.236}
{"Oligonucleotide": "GATGGATA", "E-score": -0.101}
{"Oligonucleotide": "AAAAGCTC", "E-score": -0.0756}
{"Oligonucleotide": "AGTGTAGG", "E-score": -0.207}
{"Oligonucleotide": "GTTTAGTA", "E-score": -0.0707}
{"Oligonucleotide": "CCCCCAAG", "E-score": -0.296}
{"Oligonucleotide": "CTGGCGCA", "E-score": 0.215}
{"Oligonucleotide": "ACAGTTGA", "E-score": -0.171}
{"Oligonucleotide": "AAGGCAGT", "E-score": -0.155}
{"Oligonucleotide": "AGGCGACA", "E-score": 0.0371}
{"data": "Sample 2", "target": "Interferon regulatory factor 5, full length, phosphomimetic (IRF5, Homo sapiens, UniProt Q13568-2, residues 1-514, S451D/S453D/S456D/S462D)", "method": "protein-binding microarray", "form": "double-stranded DNA, one strand shown", "medium": "in vitro", "tested at": "940 nM top", "notes": "60-bp whole probe", "together with": "salmon DNA 0.4 mg/ml", "reference": "random background probes", "reading": "higher = stronger binding", "shared flanks, not repeated": "GCCTAGCAC … GTCTTGATTCGCTTGACGCTGCTG"}
{"Oligonucleotide": "TTCGGACTGGGGTTTCGGTTAGTGCTA", "fitted relative affinity": "5.5 z-score"}
{"Oligonucleotide": "TTAGGACTGCTCCTCCTTTAGTGCTAG", "fitted relative affinity": "-0.142 z-score"}
{"Oligonucleotide": "GACGGTCTCGGTATCGGGATGTGCTAG", "fitted relative affinity": "4.55 z-score"}
{"Oligonucleotide": "TTAGATTGCGGGTATCGATTAGTGCTA", "fitted relative affinity": "3.22 z-score"}
{"Oligonucleotide": "GACGGACTGGGGCATCGGGACGTGCTA", "fitted relative affinity": "-0.786 z-score"}
{"Oligonucleotide": "TTAGATTTAGGGTATCGATTAGTGCTA", "fitted relative affinity": "1.77 z-score"}
{"Oligonucleotide": "TTAGATTTCGGGTTACGATTAGTGCTA", "fitted relative affinity": "1.56 z-score"}
{"Oligonucleotide": "AAAGTCTTCACTCTGCTGAAGTGCTAG", "fitted relative affinity": "0.137 z-score"}
{"Oligonucleotide": "TCAACTTTAACTTATTCTACTGTGCTA", "fitted relative affinity": "0.916 z-score"}
{"Oligonucleotide": "TCAACTCTGAACCTTGGACTGTGCTAG", "fitted relative affinity": "-0.399 z-score"}
{"Oligonucleotide": "TTAGGTTTCCTGCTGCTTTAGTGCTAG", "fitted relative affinity": "0.702 z-score"}
{"Oligonucleotide": "GACTGACTGGGACTGGGGACGTGCTAG", "fitted relative affinity": "-0.479 z-score"}
{"Oligonucleotide": "TTCGGACTGGACTATCGGTTAGTGCTA", "fitted relative affinity": "0.027 z-score"}
{"Oligonucleotide": "GGCGATATCAGTTTCGAGACGTGCTAG", "fitted relative affinity": "4.47 z-score"}
{"Oligonucleotide": "TTAGGTTTCCTTTTCGTTTAGTGCTAG", "fitted relative affinity": "2.81 z-score"}
{"Oligonucleotide": "TCAAATATATGTATATAACTGTGCTAG", "fitted relative affinity": "-0.0607 z-score"}
{"data": "Sample 3", "target": "RNA binding protein fox-1 homolog 2, RRM domain, GST-SBP tag (RBFOX2, Homo sapiens, UniProt O43251-10, residues 100-194)", "method": "RNA Bind-n-Seq", "form": "RNA", "medium": "in vitro", "tested at": "365 nM", "notes": "natural RNA segment, single round, ends assumed", "reference": "no-protein control", "reading": "higher = stronger binding", "shared flanks, not repeated": "GGGAGUUCUACAGUCCGACGAUC … UGGAAUUCUCGGGUGCCAA", "Construct (chain)": "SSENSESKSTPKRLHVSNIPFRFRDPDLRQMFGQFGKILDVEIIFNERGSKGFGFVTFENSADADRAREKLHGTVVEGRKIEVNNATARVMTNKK"}
{"Oligonucleotide": "GUAUAACUUUCUUUUUAAACUGUAAGUAAAGGGUCUUGCAGCUUUGUGCUUGUGUUAUCUUAGCAUUUAUCUUCAAACCAGCAUCUCACUAUUUAUUGACAGUGGUGUGU", "RBNS enrichment (R)": 0.499}
{"Oligonucleotide": "UUAAAUCAGUACAGUACCUGUACCUGCACGGUCACCCGCUCCGUGUGUCGCCCUAUAUUGAGGGCUCAAGCUUUCCCUUGUUUUUUGAAAGGGGUUUAUGUAUAAAUAUA", "RBNS enrichment (R)": 0.63}
{"Oligonucleotide": "AUUGGACCCAGGGGGAACACCCUGAAGAACAUUGAGAAGGAAUGCAACGCCAAGAUCAUGAUUCGGGGGAAAGGAUCAGUGAAAGAAGGGAAAGUUGGGCGUAAAGAUGG", "RBNS enrichment (R)": 2.89}
{"Oligonucleotide": "UGUGAUAGAUUCCAGAUAUGCUUUUUGAUGUUUUCCUCUGCUCCAGCUCCAAGAAGUCAGCACACCUGCAUUUUAGCUCUGCAUGCAGCCCCAGCAGGCUGCGUGUUUAA", "RBNS enrichment (R)": 0.766}
{"Oligonucleotide": "AGGAUGAGGGGCCCUGACCCUGUGUCUCCAACUGCUGCACCCCAUCCCGACCCUGUCUCCGCCACCUCGCAGCCCCAUUAAAGCGCUCUCAUCUGGGCUCCGGUUCACUC", "RBNS enrichment (R)": 0.691}
{"Oligonucleotide": "UACCUGAAGUCAGUGGCCUGGAUCAUAGCCCUGGAUCAUUUCCCAGUCUGUCCUGUGCUGUGUGACCUUGGACAAGGCGCUUCAUCUCUCUGGGCCUCUAUUUCUCCAUU", "RBNS enrichment (R)": 0.326}
{"Oligonucleotide": "UCCCAGCUAUGGCUUUGGACAACGUGGCUUCGGCCCCUGGGGUUGCAGAGCUUGCAUUGGGUUUACCUCGGUCUCAUUCAUUCAUGGAGCCAAGGGUGGGGUUUCACCUG", "RBNS enrichment (R)": 0.329}
{"Oligonucleotide": "CCAGAGAUGGUCAUGCACAGCCUCUUGAGACGCAUGUCACAAUGUCCUAUGACAGAGAAUGACUUAGAGCCACAGGCAUGAGUCCUUGAUAGGCAGGACUGAAAAACCAA", "RBNS enrichment (R)": 2.09}
{"data": "Sample 4", "target": "CCND3, cyclin fold, Cln2 fusion (human)", "method": "yeast growth competition, sequencing", "medium": "yeast", "notes": "weak parent motif", "reference": "not given", "reading": "higher = stronger binding", "starting sequence": "REV3L docking peptide (human); PPVIIKYIIINRF"}
{"Change": "PPVIIKYIIINRA [F13A]", "normalised enrichment score": 0.716}
{"Change": "PPVIIKYIIANRF [I10A]", "normalised enrichment score": 0.295}
{"Change": "PPVIIAYIIINRF [K6A]", "normalised enrichment score": 0.219}
{"Change": "PPVAIKYIIINRF [I4A]", "normalised enrichment score": -0.108}
{"Change": "APVIIKYIIINRF [P1A]", "normalised enrichment score": 0.0289}
{"Change": "PPVIIKYIIIARF [N11A]", "normalised enrichment score": 0.361}
{"data": "Single results of other studies"}
{"Molecule": "PhoQ, residues 284 288 289 292 302 303 ALASRC", "target": "PhoP, residues 12 14 15 18 19 LHHVQ (Escherichia coli, UniProt P23836)", "test": "Sort-seq, item: YFP reporter", "system": "E. coli", "conditions": "PhoQ-PhoP variant library, together with: 10 µM Mg2+", "scale": "reference: high Mg2+ state, higher = stronger signaling", "measurement": "fold induction", "result": 2.26}
{"note": "Some of these lines once more (sample 2):"}
{"Oligonucleotide": "TTAGATTGCGGGTATCGATTAGTGCTA", "fitted relative affinity": "3.22 z-score"}
{"Oligonucleotide": "TTAGATTTCGGGTTACGATTAGTGCTA", "fitted relative affinity": "1.56 z-score"}
{"Oligonucleotide": "AAAGTCTTCACTCTGCTGAAGTGCTAG", "fitted relative affinity": "0.137 z-score"}
{"Oligonucleotide": "TTCGGACTGGGGTTTCGGTTAGTGCTA", "fitted relative affinity": "5.5 z-score"}
{"Oligonucleotide": "TCAAATATATGTATATAACTGTGCTAG", "fitted relative affinity": "-0.0607 z-score"}
{"Oligonucleotide": "TTAGGTTTCCTTTTCGTTTAGTGCTAG", "fitted relative affinity": "2.81 z-score"}
